Assay results from different studies.
Several values in a cell are separate wells, animals, samples, runs or records. ± marks the error that the study gave.

`CN(Cc1cc(C2CC2)on1)C(=O)c1cccc(-c2ccc3c(c2)CCO3)c1` has a reaction rate of 0.00123 a.u. (acetyl-CoA synthetase 1 (Aspergillus fumigatus); enzyme activity, inhibitor, coupled pyrophosphate; 5 µM; higher is more activity).
With `CC(C)C[C@H](NC(=O)[C@H](Cc1ccc(O)cc1)NC(=O)[C@@H](CCCNC(=N)N)NC(=O)[C@@H](CO)NC(=O)[C@H](Cc1ccccc1)NC(=O)[C@H](CC1CCCCC1)NC(=O)[C@H](CC(=O)O)NC(=O)CN1CCN(CC(=O)O)CCN(CC(=O)O)CCN(CC(=O)O)CC1)C(=O)N[C@@H](Cc1c[nH]c2ccccc12)C(=O)N[C@@H](CO)C(=O)O` [copper-64 labelled] the activity concentration was 5400 Bq/mL and 531 Bq/mL and 3040 Bq/mL (human, gall bladder; concentration not given, 1 h).
With `NCCOc1cc(NC(=O)c2cc(OCc3cn(Cc4ccc(C(=O)O)cc4)nn3)cc(C(=O)Nc3cc(OCCN)c4ccccc4n3)n2)nc2ccccc12` the ΔTm was 4.2 ± 0.3 K (Bcl2 G-quadruplex DNA; FRET melting; 1 µM, pH 7.4, with: 60 mM potassium).
`c1ccc(-c2n[nH]cc2-c2ccnc3ccccc23)nc1`: “log2 fold change” 0.09 (BCK1 (Candida albicans); kinase binding, MIB/MS competition; Candida albicans lysate; 1 µM; relative to: DMSO).
For `Cc1cn(CC(=O)N(CC(=O)N[C@H]2COC[C@@H]2N(CC(=O)NCCOCCOCC(N)=O)C(=O)Cn2cnc3c(N)ncnc32)[C@H]2COC[C@@H]2NC(=O)CN(C(=O)Cn2cnc3c(N)ncnc32)[C@H]2COC[C@@H]2NC(=O)CN(C(=O)Cn2cnc3c(=O)[nH]c(N)nc32)[C@H]2COC[C@@H]2NC(=O)CN(C(=O)Cn2cc(C)c(=O)[nH]c2=O)[C@H]2COC[C@@H]2NC(=O)CN(C(=O)Cn2cnc3c(=O)[nH]c(N)nc32)[C@H]2COC[C@@H]2NC(=O)CN(C(=O)Cn2cc(C)c(=O)[nH]c2=O)[C@H]2COC[C@@H]2NC(=O)CN(C(=O)Cn2cnc3c(N)ncnc32)[C@H]2COC[C@@H]2NC(=O)CN(C(=O)Cn2cnc3c(=O)[nH]c(N)nc32)[C@H]2COC[C@@H]2N)c(=O)[nH]c1=O`, the ΔTm was -21.4 °C (mismatched DNA TG; duplex formation, UV melting; relative to: complementary DNA).
For `O=c1cc(-c2ccccc2)oc2c(Br)c(O)c(O)c(O)c12`, the inhibition was 35.6 ± 0.71% (bovine serum albumin; methylglyoxal-mediated glycation, fluorescence; concentration not given).
For `C=C(NC(=O)c1csc(-c2nc3c(cc2O)-c2nc(cs2)C(=O)NC(C(C)O)C(=O)NC(=C(C)OC)c2nc(cs2)C(=O)NC2c4nc(cs4)C(=O)NC(COC(=O)c4c5c6c(cccc6n4O)COC(=O)C(OC4CC(C)(O)C(N(C)C)C(C)O4)C2OC5)c2nc-3cs2)n1)C(N)=O` (stereo not shown), the Vz/F was 40300 mL/kg (Sprague-Dawley rat, male, plasma; intravenous infusion, 6 mg/kg, multiple doses, day 7).
`C=CC(=O)Nc1cccc(Cn2ncc3cnc(Nc4cnn(CCOC)c4)nc32)c1`: “percent of control” 100% (PCTK2 human; binding, KINOMEscan; 100 nM; lower = stronger binding).
The relative co-enrichment of `C=CC(=O)N1[C@@H](c2ccc3c(c2)OCO3)c2[nH]c3ccccc3c2C[C@H]1C(=O)N1CCN(C)CC1` is reported as 108% (human cyclin E1 wild type-3xFLAG:CDK2; co-IP with TMT proteomics, measured: SDHB; concentration not given, P21912; relative to: wild type DMSO).
`CCN(CC)C(=O)CC(NC(=O)CCc1ccccc1)C(=O)NC(Cc1ccc(F)cc1)C(=O)NC(Cc1ccc(F)cc1F)C(=O)C1(C)CO1` (stereo not shown): probe labelling “inhibited” (proteasome β5, Trypanosoma brucei; activity-based probe labelling, inhibitor; parasite lysate; 1 µM, 1 h preincubation, with: Me4BodipyFL-Ahx3Leu3VS).
`O=C1C2CC3CC1CC(C(=O)N1CCN(c4ccc([N+](=O)[O-])c5ncccc45)CC1)(C3)C2`: “revertant fold increase” 1 (Salmonella typhimurium; Ames test; TA97a; 0.13 µg/well, without S9; relative to: vehicle).
`CNS(=O)(=O)Nc1nccc(Cc2c(C)c3ccc(Oc4ncccc4F)cc3oc2=O)c1F` gave an IC50 of > 1000 nM (NCI-H82; cell viability; 7 days).
The ΔTm of `Cc1cn(CC(=O)N(CCNC(=O)CN(CCNC(=O)CN(CCNC(=O)CN(CCNC(=O)CN(CCNC(=O)CN(CCNC(=O)CN(CCNC(=O)CN(CCN)C(=O)Cn2cnc3c(=O)[nH]c(N)nc32)C(=O)Cn2cnc3c(N)ncnc32)C(=O)Cn2cc(C)c(=O)[nH]c2=O)C(=O)Cn2cnc3c(=O)[nH]c(N)nc32)C(=O)Cn2cc(C)c(=O)[nH]c2=O)C(=O)Cn2cnc3c(=O)[nH]c(N)nc32)C(=O)Cn2cnc3c(N)ncnc32)CC(=O)NCCN(CC(=O)NCCOCCOCC(N)=O)C(=O)Cn2cnc3c(N)ncnc32)c(=O)[nH]c1=O` is reported as -16.6 °C (mismatched DNA TG; duplex formation, UV melting; relative to: complementary DNA).
Under “log2 fold change”, `CN1CCCNC(=O)c2cccc(c2)C(=O)NCCCN(C)CCCNc2cccc3c2C(=O)c2cccc(c2C3=O)NCCC1` is recorded as -0.46 (SAS; RNA-Seq, measured: EXOC3 mRNA; 1 µM, 6 h; relative to: untreated cells).
With `Nc1ncc(-c2cc(-c3cnn(CC(F)(F)F)c3)ncc2F)nc1C(=O)NC1CNCC(F)C1` (stereo not shown) the remaining binding was 100% (CAMKK1; KINOMEscan; 1 µM; relative to: DMSO control).
For `Cc1ncsc1-c1ccc(C(C)NC(=O)C2CC(O)CN2C(=O)C(NC(=O)CCCCCCCCCCN2CCCC(Nc3ncc(Cl)c(Nc4ccccc4S(=O)(=O)C(C)C)n3)C2)C(C)(C)C)cc1` (stereo not shown), “log2 fold change” read -1.48 (22Rv1; RNA-seq, measured: PAGR1 mRNA; concentration not given; relative to: DMSO).
Under “log2 fold change”, `COC1CN([C@H]2CC[C@H]([C@@]3(C)Oc4c(Cl)cc(C(=O)NCc5c(SC)cc(C)[nH]c5=O)c(C)c4O3)CC2)C1` is recorded as 0.807 (RNA-seq, measured: ZNF219 mouse homolog; mouse, HT-1376 xenograft, whole blood; dose not given; relative to: vehicle).
The FRET efficiency of `CC(C)(O)c1ccn2c(-c3ccc(F)c(-c4ccc(F)cc4C#N)c3)cnc2c1F` is reported as 41 ± 2.1% (GABAA receptor, α1 and β2, CFP, YFP, G251D; FRET; HEK-293T; 5 µM, 24 h, with: hispidulin 10 µM).
The ΔTm of `CN(C)CCOc1cc(NC(=O)c2cccc(C(=O)Nc3cc(OCCN(C)C)c4ccccc4n3)n2)nc2ccccc12` is reported as 9.9 ± 1.1 K (Bcl2 G-quadruplex DNA; FRET melting; 1 µM, pH 7.4, with: 60 mM potassium).
`CC(=O)N1c2ccc(-c3ccc(CNC(=O)c4cn5cc(-c6cnc(N)nc6)nc(N6CCOCC6)c5n4)cc3)cc2CC[C@@H]1C` has a remaining binding of 96% (human TRIM33 PHD-bromodomain; BROMOscan; 10000 nM; relative to: control).
The ΔTm of `NCCCn1cc(COc2cc(C(=O)Nc3cc(OCCN)c4ccccc4n3)nc(C(=O)Nc3cc(OCCN)c4ccccc4n3)c2)nn1` is reported as 2.5 ± 0.4 K (Bcl2 G-quadruplex DNA; FRET melting; 1 µM, pH 7.4, with: 60 mM potassium).
The inhibition of `COc1c(Br)c(O)c2c(c1Br)OC(c1ccccc1)CC2=O` (stereo not shown) is reported as 37.2 ± 7.62% (bovine serum albumin; methylglyoxal-mediated glycation, fluorescence; concentration not given).
With `COc1cc(O)ccc1CCC(c1ccc(O)cc1)c1cc2c(c(C)c1O)OC(c1ccc(O)cc1)CC2` (mixture of isomers) the amount was 7 ± 1 pg/mL blood (measured: RvD5; human whole blood; 3 µM, with: Escherichia coli).
`O=c1cc(-c2ccccc2)oc2c(Br)c(O)c(Br)c(O)c12` has an inhibition of 97.01 ± 0.04% (bovine serum albumin; methylglyoxal-mediated glycation, fluorescence; concentration not given).
Under IFNβ secretion, `N=C(c1ccc([N+](=O)[O-])o1)N1CCC(NC(=O)c2cc(-c3ccc(F)cc3F)on2)(c2nc3ccccc3[nH]2)CC1` is recorded as “inhibited” (STING pathway; inhibitor, ELISA; mouse iBMDM; concentration not given, 24 h, with: diABZI 500 nM).
`Cc1c(C)c2cccnc2c2ncccc12.O=[N+]([O-])[O-].O=c1c(C=NN=C([S-])Nc2ccccc2)coc2ccccc12.[Cu+2]` — result for “nicked circular DNA”: 100% (supercoiled pUC19 DNA; oxidative DNA cleavage; concentration not given, superoxide dismutase 1 U, with: ascorbic acid).
Under IFNβ secretion, `N=C(NCC[C@H](NC(=O)c1noc(-c2cc(F)ccc2F)n1)c1nc2ccccc2[nH]1)c1ccc([N+](=O)[O-])o1` is recorded as “inhibited” (STING pathway; inhibitor; human CD14+ monocytes; 2.5 µM, with: diABZI).
For `CCN(CC)CC(=O)Nc1cccc(-n2cc(-c3ccc4ccc(-c5cn(-c6cccc(NC(=O)CN(CC)CC)c6)nn5)cc4c3)nn2)c1`, the fold regulation was -1.1 fold (RCC4; PCR angiogenesis array, measured: TGFBR1; 5 x IC50, 4 h, normoxia; relative to: untreated).

Excerpt of the above:
With `Nc1ncc(-c2cc(-c3cnn(CC(F)(F)F)c3)ncc2F)nc1C(=O)NC1CNCC(F)C1` (stereo not shown) the remaining binding was 100% (CAMKK1; KINOMEscan; 1 µM; relative to: DMSO control).
Under “log2 fold change”, `CN1CCCNC(=O)c2cccc(c2)C(=O)NCCCN(C)CCCNc2cccc3c2C(=O)c2cccc(c2C3=O)NCCC1` is recorded as -0.46 (SAS; RNA-Seq, measured: EXOC3 mRNA; 1 µM, 6 h; relative to: untreated cells).
`O=C1C2CC3CC1CC(C(=O)N1CCN(c4ccc([N+](=O)[O-])c5ncccc45)CC1)(C3)C2`: “revertant fold increase” 1 (Salmonella typhimurium; Ames test; TA97a; 0.13 µg/well, without S9; relative to: vehicle).
For `C=C(NC(=O)c1csc(-c2nc3c(cc2O)-c2nc(cs2)C(=O)NC(C(C)O)C(=O)NC(=C(C)OC)c2nc(cs2)C(=O)NC2c4nc(cs4)C(=O)NC(COC(=O)c4c5c6c(cccc6n4O)COC(=O)C(OC4CC(C)(O)C(N(C)C)C(C)O4)C2OC5)c2nc-3cs2)n1)C(N)=O` (stereo not shown), the Vz/F was 40300 mL/kg (Sprague-Dawley rat, male, plasma; intravenous infusion, 6 mg/kg, multiple doses, day 7).
